Measured values gathered from unrelated publications.
Compare with care: the assays were run in different laboratories. “And” joins repeats or separate records; there may be more than shown. Numbers after ± are the reported error.
Cell line: MDA-MB-231

Compound | test | setting | IC50
C[C@@H]1CC[C@@H]([C@](C)(O)CNCc2cccc3ccccc23)[C@H](OCc2ccccc2)C1 | cell growth, inhibitor, MTT | 72 h | 25 µM
CCNC(=S)NNC(=O)COc1ccc2c(C)c(CC)c(=O)oc2c1C | cell viability, MTT |  | 331 µM
C#CCCCC[C@H](C)C[C@@H](C)C(=O)O | cell growth, sulforhodamine B |  | 141 µM and 149 µM and 204 µM
COc1ccc2c(c1)C(=O)C(=O)N2CCn1cnc2c(N)ncnc21 | cell growth, SRB | 72 h | 46 ± 10.5 µg/mL
CC(=O)O[C@@]12CO[C@@H]1C[C@H](O)[C@@]1(C)C(=O)[C@H](O)C3=C(C)[C@@H](OC(=O)[C@H](O)[C@@H](NC(=O)OC(C)(C)C)c4ccccc4)C[C@@](O)([C@@H](OC(=O)c4ccccc4)[C@H]21)C3(C)C | cytotoxicity, CCK-8 | 72 h | 0.136 µM
Nc1ncnc2c1ncn2CCN1C(=O)C(=O)c2cc(F)ccc21 | cell growth, SRB | 72 h | 27.1 ± 8.34 µg/mL
COc1ccc(CNC[C@@](C)(O)[C@@H]2CC[C@@H](C)C[C@H]2OCc2ccccc2)cc1 | cell growth, inhibitor, MTT | 72 h | 5.73 µM
COc1cc(C#N)c(Oc2ccccc2C)cc1-n1c(=O)cc(C(F)(F)F)[nH]c1=O |  |  | ~40 µM
CCc1c(C)c2ccc(OCC(=O)NNC(=S)Nc3ccccc3)c(C)c2oc1=O | MTT |  | 37.9 µg/mL
C[C@@H]1CC[C@@H]([C@](O)(CNCc2cccc3ccccc23)COCc2ccccc2)[C@H](OCc2ccccc2)C1 | cell growth, inhibitor, MTT | 72 h | 3.57 µM
O=C1NC(=NCc2cccs2)S/C1=C\c1ccc2ncccc2c1 | MTS | NCI60 panel | > 10 µM
Cc1ccccc1Oc1cc(-n2c(=O)cc(C(F)(F)F)[nH]c2=O)c(C)cc1C#N |  |  | ~30 µM
COc1ccc(COC[C@@](O)(CNCc2ccccc2)[C@@H]2CC[C@@H](C)C[C@H]2OCc2ccc(OC)cc2)cc1 | cell growth, inhibitor, MTT | 72 h | 2.19 µM
Cc1c(Cc2ccccc2)c(=O)oc2c(C)c(OCC(=O)NN=Cc3ccccc3)ccc12 | MTT |  | 3.75 µg/mL
COc1ccccc1CNC[C@@](C)(O)[C@@H]1CC[C@@H](C)C[C@H]1OCc1ccccc1 | cell growth, inhibitor, MTT | 72 h | 12.8 µM
N#Cc1cc(F)c(-n2c(=O)cc(C(F)(F)F)[nH]c2=O)cc1Oc1c(F)cccc1F |  |  | ~30 µM
CC1=CC(=O)C(C(C)C)=CC1=O | cell growth, SRB | 48 h | no effect

Compound | test | setting | IC50
CCc1c(C)c2ccc(OCc3nnc(S)n3N)c(C)c2oc1=O | cell viability, MTT |  | 219 µM
O=C1C(=O)N(CCn2ncc3c(=O)[nH]cnc32)c2ccc(Cl)cc21 | cell growth, SRB | 72 h | 4.59 ± 1.44 µg/mL
Cc1c(Cc2ccccc2)c(=O)oc2c(C)c(OCC(=O)NN=Cc3ccc([N+](=O)[O-])cc3)ccc12 | MTT |  | 11.8 µg/mL
C[C@@H]1CC[C@@H]([C@](O)(CNCc2ccccc2)COCc2ccccc2)[C@H](OCc2ccccc2)C1 | cell growth, inhibitor, MTT | 72 h | 3.98 µM
C#CCCCC[C@H](C)C[C@@H](C)C(=O)N1C(=O)OC[C@H]1Cc1ccccc1 | cell growth, sulforhodamine B |  | 128 µM and 91 µM and 85.8 µM
CC[C@@]1([C@@H]2O[C@@H]([C@H]3O[C@@](O)(CO)[C@H](C)C[C@@H]3C)C[C@@H]2C)CC[C@H]([C@]2(C)CC[C@]3(C[C@H](O)[C@@H](C)[C@@H]([C@@H](C)[C@@H](OC)[C@H](C)C(=O)O)O3)O2)O1 | cell viability, MTT | 72 h, 3D mini-ring | 0.65 ± 0.459 µM
NC(=S)N/N=C1\C(=O)N(CCn2ncc3c(=O)[nH]cnc32)c2ccc(Cl)cc21 | cell growth, SRB | 72 h | 22.6 ± 4.1 µg/mL
C=CCOc1ccc2c(C)c(CC)c(=O)oc2c1C | cell viability, MTT |  | 604 µM
C[C@@H]1CC[C@@H]([C@@](C)(O)Cn2cnc3ccccc32)[C@H](OCc2ccccc2)C1 | cell growth, inhibitor, MTT | 72 h | 27.6 µM
C=CCNC(=S)NNC(=O)COc1ccc2c(C)c(CC)c(=O)oc2c1C | cell viability, MTT |  | 241 µM
C[C@@H]1CC[C@@H]([C@](O)(CNCc2ccccc2)COCc2ccc(F)cc2)[C@H](OCc2ccc(F)cc2)C1 | cell growth, inhibitor, MTT | 72 h | 1.46 µM
COc1cc(C#N)c(Oc2ccccc2C)cc1-n1c(=O)cc(S(C)(=O)=O)[nH]c1=O |  |  | ~30 µM
CNc1nc2c(c(N3CC(=O)Nc4cc(OC)ccc43)n1)CCC2 | cell growth, MTS |  | 0.001 to 0.004 µM
O=C(NNS(=O)(=O)c1ccccc1)c1ccc2oc3ccccc3c2c1 |  |  | ~30 µM
CCc1c(C)c2ccc(OCC=Cc3ccccc3)c(C)c2oc1=O | cell viability, MTT |  | 579 µM
Nc1ncnc2c1ncn2CCN1C(=O)C(=O)c2cc(Cl)ccc21 | cell growth, SRB | 72 h | 6.71 ± 2.89 µg/mL
CNC(=O)c1ccn2c(-n3c(=O)cc(C(F)(F)F)[nH]c3=O)c(-c3ccccn3)nc2c1 |  |  | > 30 µM

A few entries again:
Compound | test | setting | IC50
O=C1NC(=NCc2cccs2)S/C1=C\c1ccc2ncccc2c1 | MTS | NCI60 panel | > 10 µM
Cc1ccccc1Oc1cc(-n2c(=O)cc(C(F)(F)F)[nH]c2=O)c(C)cc1C#N |  |  | ~30 µM
COc1ccc(COC[C@@](O)(CNCc2ccccc2)[C@@H]2CC[C@@H](C)C[C@H]2OCc2ccc(OC)cc2)cc1 | cell growth, inhibitor, MTT | 72 h | 2.19 µM
Cc1c(Cc2ccccc2)c(=O)oc2c(C)c(OCC(=O)NN=Cc3ccccc3)ccc12 | MTT |  | 3.75 µg/mL
COc1ccccc1CNC[C@@](C)(O)[C@@H]1CC[C@@H](C)C[C@H]1OCc1ccccc1 | cell growth, inhibitor, MTT | 72 h | 12.8 µM
